Assay results of several laboratories.
Each line is one published result; not all experiments were run side by side. ± gives the spread as reported.
Nuclear receptor subfamily 2 group C member 2 ligand-binding domain: Nuclear receptor subfamily 2 group C member 2, ligand-binding domain (Homo sapiens, UniProt P49116)

SMILES | target or system | assay | system | setting | how to read | endpoint | result
C[C@H]1CN(c2n[nH]c3nc(N[C@H]4CC[C@H](NS(=O)(=O)CCC(F)(F)F)CC4)ncc23)CCO1 | Transportin-1 (TNPO1, Homo sapiens, UniProt Q92973) | inhibitor, Kinobeads competition profiling | – | 0.8 µM | reference: vehicle | relative abundance | 1.29
Cc1sc2c(c1C)C(c1ccc(Cl)cc1)=N[C@@H](CC(=O)O)c1nnc(C)n1-2 | elongin C (Spodoptera frugiperda, UniProt A0A2H1WSX9+A0A9R0EEM2) | ternary complex formation, degrader, AlphaLISA | – | – | – | Kd | > 500 nM
CSCC[C@H](NC(=O)CNC(=O)[C@H](Cc1ccccc1)NC(=O)[C@H](CC(=O)O)NC(=O)CNC(=O)c1ccc2c(c1)C(=O)OC21c2ccc(N(C)C)cc2Oc2cc(N(C)C)ccc21)C(=O)N[C@@H](CO)C(=O)N[C@@H](CCCNC(=N)N)C(=O)N[C@@H](CC(=O)O)C(=O)N[C@H](C(=O)N[C@@H](Cc1ccc(OP(=O)(O)O)cc1)C(=O)N[C@@H](CO)C(=O)N[C@H](C(=O)N[C@@H](CC(=O)O)C(=O)N[C@@H](Cc1ccc(O)cc1)C(=O)N[C@@H](Cc1ccc(O)cc1)C(=O)N[C@@H](CCCNC(=N)N)C(=O)N[C@H](C(=O)N[C@@H](CC(=O)O)C(=O)O)C(C)C)[C@@H](C)O)C(C)C | VAV3, SH2 domain (Homo sapiens, UniProt Q9UKW4) | binding | – | – | – | Kd | 894 nM
CC[C@H](C)[C@@H]1NC(=O)[C@H](Cc2c[nH]c3ccccc23)NC(=O)[C@H](Cc2ccc(O)cc2)NC(=O)CSC[C@@H](C(N)=O)NC(=O)[C@H]([C@@H](C)O)NC(=O)[C@H](CO)NC(=O)[C@H](C(C)C)NC(=O)[C@H](Cc2ccc(O)cc2)NC(=O)[C@H](CCCNC(=N)N)NC(=O)[C@H](Cc2ccc(O)cc2)NC(=O)[C@H]([C@@H](C)O)NC(=O)[C@H]([C@@H](C)O)NC(=O)[C@H](Cc2c[nH]c3ccccc23)NC(=O)[C@H](CO)NC(=O)[C@H](CC(N)=O)NC(=O)[C@H](CO)NC1=O | Retromer complex (Thermochaetoides thermophila, UniProt G0S0E6+G0S709) | binding, ITC | – | 25 °C, retromer, Chaetomium thermophilum | – | Kd | 5030 ± 900 nM
CC[C@H](C)[C@H](NC(=O)[C@H](Cc1ccc(OP(=O)(O)O)cc1)NC(=O)[C@H](CCC(=O)O)NC(=O)[C@@H]1CCCN1C(=O)[C@@H](NC(=O)[C@@H]1CCCN1C(=O)[C@H](CC(C)C)NC(=O)[C@H](Cc1ccccc1)NC(=O)[C@@H](NC(=O)[C@H](CC(=O)O)NC(=O)[C@H](CC(=O)O)NC(=O)c1ccc2c(c1)C(=O)OC21c2ccc(N(C)C)cc2Oc2cc(N(C)C)ccc21)[C@@H](C)O)C(C)C)C(=O)N[C@@H](CC(N)=O)C(=O)N[C@@H](CCC(N)=O)C(=O)N[C@@H](CO)C(=O)N[C@H](C(=O)N1CCC[C@H]1C(=O)N[C@@H](CCCCN)C(=O)N[C@@H](CC(=O)O)C(=O)O)C(C)C | Growth factor receptor-bound protein 7, SH2 domain (GRB7, Homo sapiens, UniProt Q14451) | binding | – | – | – | Kd | 1980 nM
Fc1ccc([C@@H]2CCNC[C@H]2COc2ccc3c(c2)OCO3)cc1 | snf (Aquifex aeolicus, UniProt O67854, G24D/I359G/N21Y/S256G/T254S/Y265F) | saturation binding | – | – | – | Kd | 2410 ± 106 nM
COc1cc2c(Oc3ccc4[nH]c(C)cc4c3F)ccnc2cc1OCC1(N)CC1 | – | – | paediatric refractory sarcoma patients | 8 mg | – | Hematuria incidence | 0%
NCC(O)c1ccc(O)cc1 (racemic) | Nuclear receptor subfamily 2 group C member 2 ligand-binding domain | SPR imaging | – | – | – | Kd | 67.2 nM
CSCC[C@H](N)C(=O)N[C@@H](CCC(=O)O)C(=O)N[C@@H](CCCCN)C(=O)N1CCC[C@H]1C(=O)N[C@@H](CC(C)C)C(=O)N1CCC[C@H]1C(=O)N[C@@H](CC(C)C)C(=O)O | Stimulator of interferon genes protein, H232R; C-terminal domain (STING1, Homo sapiens, UniProt Q86WV6, H232R) | binding to CTD, microscale thermophoresis | – | 5 min, pH 7.5, room temperature | – | Kd | 10700 nM
CSCC[C@H](NC(=O)[C@H](CC(=O)O)NC(=O)c1ccc2c(c1)C(=O)OC21c2ccc(N(C)C)cc2Oc2cc(N(C)C)ccc21)C(=O)N[C@@H](CO)C(=O)N[C@@H](CCCCN)C(=O)N[C@@H](CC(=O)O)C(=O)N[C@@H](CCC(=O)O)C(=O)N[C@@H](CO)C(=O)N[C@H](C(=O)N[C@@H](CC(=O)O)C(=O)N[C@@H](Cc1ccc(OP(=O)(O)O)cc1)C(=O)N[C@H](C(=O)N1CCC[C@H]1C(=O)N[C@@H](CCSC)C(=O)N[C@@H](CC(C)C)C(=O)N[C@@H](CC(=O)O)C(=O)N[C@@H](CCSC)C(=O)N[C@@H](CCCCN)C(=O)N[C@@H](CC(=O)O)C(=O)O)C(C)C)C(C)C | Ras and Rab interactor 1, SH2 domain (RIN1, Homo sapiens, UniProt Q13671) | binding | – | – | – | Kd | 497 nM
CC[C@H](C)[C@H](NC(=O)[C@H](CCC(N)=O)NC(=O)[C@@H](NC(=O)[C@@H]1CCCN1C(=O)[C@@H](NC(=O)[C@H](CO)NC(=O)[C@H](Cc1ccccc1)NC(=O)[C@@H]1CCCN1C(=O)[C@H](CCC(N)=O)NC(=O)[C@@H](N)CCSC)[C@@H](C)CC)C(C)C)C(=O)N[C@H](C(=O)N[C@@H](CC(C)C)C(=O)N[C@@H](CCC(N)=O)C(=O)NCC(=O)N[C@@H](CO)C(=O)N[C@@H](CCCNC(=N)N)C(=O)N[C@@H](CCCNC(=N)N)C(=O)N[C@@H](CCCNC(=N)N)C(=O)N[C@@H](CCC(N)=O)C(=O)NCC(=O)N[C@@H](CCCNC(=N)N)C(N)=O)[C@@H](C)O | Kcnma1 (Mus musculus, UniProt Q08460) | ion current, blocker, inside-out patch clamp | Xenopus oocytes | range over 0.5 µM, pH 7.0, 22–24 °C, at 0 mV, together with: 10 µM cytosolic Ca2+ | – | Kd | 900 nM
N[C@@H](Cc1c[nH]c2ccccc12)C(=O)O | Transcription attenuation protein MtrB, Δ71 truncation (mtrB, Geobacillus stearothermophilus, UniProt Q9X6J6) | native mass spectrometry titration | – | – | – | Kd | 3120 nM
CC[C@H](C)[C@H](NC(=O)[C@H](CCCNC(=N)N)NC(=O)CNC(=O)[C@H](Cc1c[nH]c2ccccc12)NC(=O)[C@@H]1CSC[C@@H](NC(=O)[C@H](Cc2ccc(O)cc2)NC(=O)[C@H](Cc2c[nH]c3ccccc23)NC(=O)[C@H](CC(C)C)NC(=O)CNC(=O)[C@H](CCCNC(=N)N)NC(=O)c2ccc3c(c2)C(=O)OC32c3ccc(O)cc3Oc3cc(O)ccc32)C(=O)N[C@@H](CC(C)C)C(=O)N[C@@H](CO)C(=O)N1)C(=O)NCC(=O)N[C@@H](CCCNC(=N)N)C(=O)N[C@@H](CCCNC(=N)N)C(=O)NCC(=O)O | Sortase B (srtB, Staphylococcus aureus, UniProt Q2FZE3) | binding, fluorescence polarization | – | pH 7.5 | – | Kd | > 500000 nM
CN(CC(=O)O)C(=N)NP(=O)(O)O | CKMT1A (Homo sapiens, UniProt P12532) | microscale thermophoresis | – | pH 8.5, wild type, no substrate | – | Kd | 474000 ± 321000 nM
Cc1cn([C@H]2C[C@H](O)[C@@H](COP(=O)(O)OP(=O)(O)OP(=O)(O)O)O2)c(=O)[nH]c1=O | DNA polymerase I, Klenow fragment (polA, Escherichia coli, UniProt P00582, C907S/D424A/L744C/Y766A) | nucleotide incorporation, substrate, single-turnover rapid quench | – | together with: radiolabelled primer-template DNA | – | Kd | 150000 ± 40000 nM
CC(C)[C@H](N)C(=O)O | livJ (Escherichia coli, UniProt P0AD96, Q172C) | fluorescence titration | – | – | – | Kd | 1100 nM
CC(C)C[C@H](NC(=O)[C@@H](NC(=O)[C@H](CO)NC(=O)[C@H](CO)NC(=O)[C@@H](NC(=O)[C@H](CC(=O)O)NC(=O)[C@H](CC(C)C)NC(=O)[C@@H]1CCCN1C(=O)[C@H](CO)NC(=O)c1ccc2c(c1)C(=O)OC21c2ccc(N(C)C)cc2Oc2cc(N(C)C)ccc21)[C@@H](C)O)C(C)C)C(=O)N[C@@H](Cc1ccc(OP(=O)(O)O)cc1)C(=O)N[C@H](C(=O)N[C@@H](C)C(=O)N[C@H](C(=O)N[C@@H](CCC(N)=O)C(=O)N1CCC[C@H]1C(=O)N[C@@H](CC(N)=O)C(=O)N[C@@H](CCC(=O)O)C(=O)N[C@@H](CC(=O)O)C(=O)O)C(C)C)[C@@H](C)O | Tyrosine-protein kinase JAK3, SH2 domain (JAK3, Homo sapiens, UniProt P52333) | binding | – | – | – | Kd | 1030 nM
CC(C)(C)C(O)C(Oc1ccc(-c2ccccc2)cc1)n1cncn1 (centres unmarked) | Glideosome-associated protein 50 (GAP50, Plasmodium falciparum, UniProt Q8I2X3) | binding, surface plasmon resonance | – | 1:1 binding model | – | Kd | 330 nM
O=c1c(OS(=O)(=O)O)c(-c2ccc(O)c(O)c2)oc2cc(O)cc(O)c12 | RPSA (Homo sapiens, UniProt P08865) | binding, tryptophan fluorescence quenching | – | – | – | Kd | 190 ± 11 nM
CC[C@H](C)[C@H](NC(=O)[C@H](C)N)C(=O)N[C@@H](CO)C(=O)N[C@@H](CO)C(=O)N[C@@H](CO)C(=O)N[C@@H](CO)C(=O)N[C@@H](CS)C(=O)N[C@@H](CCC(=O)O)C(=O)N[C@@H](CC(C)C)C(=O)N1CCC[C@H]1C(=O)N[C@@H](CC(C)C)C(=O)N[C@H](C(=O)N[C@@H](C)C(=O)N[C@H](C(=O)N[C@@H](CCCCN)C(=O)N[C@@H](CCCCN)C(=O)N[C@@H](CCCCN)C(=O)N[C@@H](CCCCNC(=O)CCCCCNC(=S)Nc1ccc2c(c1)C(=O)OC21c2ccc(O)cc2Oc2cc(O)ccc21)C(N)=O)C(C)C)C(C)C | E3 ubiquitin-protein ligase XIAP, BIR1 domain (XIAP, Homo sapiens, UniProt P98170) | fluorescence polarization | – | BIR domain, together with: FITC-labelled peptide 20 nM | – | Kd | no binding
CC[C@H](C)[C@H](NC(=O)[C@H](Cc1ccc(OP(=O)(O)O)cc1)NC(=O)[C@H](CCC(=O)O)NC(=O)[C@H](Cc1c[nH]cn1)NC(=O)CNC(=O)[C@H](CC(=O)O)NC(=O)[C@H](CO)NC(=O)[C@H](CO)NC(=O)[C@@H](NC(=O)[C@H](CO)NC(=O)[C@H](CCC(=O)O)NC(=O)c1ccc2c(c1)C(=O)OC21c2ccc(N(C)C)cc2Oc2cc(N(C)C)ccc21)C(C)C)C(=O)N[C@@H](Cc1ccc(O)cc1)C(=O)N[C@H](C(=O)N[C@@H](CC(=O)O)C(=O)N1CCC[C@H]1C(=O)N[C@@H](CCSC)C(=O)N[C@@H](CCC(N)=O)C(=O)N[C@@H](CC(=O)O)C(=O)O)C(C)C | Growth factor receptor-bound protein 10, SH2 domain (Homo sapiens, UniProt Q13322) | binding | – | – | – | Kd | 1840 nM
CO[C@H]1C[C@@H]2CC[C@@H](C)[C@@](O)(O2)C(=O)C(=O)N2CCCC[C@H]2C(=O)O[C@H]([C@H](C)C[C@@H]2CC[C@@H](OC(=O)NCCOCCOCCOCCOCCOCCOCCOCCOCCC(=O)N3CCc4cc(Cn5nc(-c6ccc7oc(N)nc7c6)c6c(N)ncnc65)ccc4C3)[C@H](OC)C2)C[C@@H](O)[C@H](C)/C=C(\C)[C@@H](O)[C@@H](OC)C(=O)[C@H](C)C[C@H](C)/C=C/C=C/C=C/1C | – | – | patients with advanced solid tumours | intravenous, dose not given, any grade | – | Fatigue AE leading to dose reduction | 1.8%
CCC[S+]([O-])c1ccc2[nH]c(NC(=O)OC)nc2c1 (centres unmarked) | Nuclear receptor subfamily 2 group C member 2 ligand-binding domain | SPR imaging | – | – | – | Kd | 25.7 nM

Excerpt of the above:
SMILES | target or system | assay | system | setting | how to read | endpoint | result
CC[C@H](C)[C@H](NC(=O)[C@H](CCCNC(=N)N)NC(=O)CNC(=O)[C@H](Cc1c[nH]c2ccccc12)NC(=O)[C@@H]1CSC[C@@H](NC(=O)[C@H](Cc2ccc(O)cc2)NC(=O)[C@H](Cc2c[nH]c3ccccc23)NC(=O)[C@H](CC(C)C)NC(=O)CNC(=O)[C@H](CCCNC(=N)N)NC(=O)c2ccc3c(c2)C(=O)OC32c3ccc(O)cc3Oc3cc(O)ccc32)C(=O)N[C@@H](CC(C)C)C(=O)N[C@@H](CO)C(=O)N1)C(=O)NCC(=O)N[C@@H](CCCNC(=N)N)C(=O)N[C@@H](CCCNC(=N)N)C(=O)NCC(=O)O | Sortase B (srtB, Staphylococcus aureus, UniProt Q2FZE3) | binding, fluorescence polarization | – | pH 7.5 | – | Kd | > 500000 nM
CN(CC(=O)O)C(=N)NP(=O)(O)O | CKMT1A (Homo sapiens, UniProt P12532) | microscale thermophoresis | – | pH 8.5, wild type, no substrate | – | Kd | 474000 ± 321000 nM
Cc1cn([C@H]2C[C@H](O)[C@@H](COP(=O)(O)OP(=O)(O)OP(=O)(O)O)O2)c(=O)[nH]c1=O | DNA polymerase I, Klenow fragment (polA, Escherichia coli, UniProt P00582, C907S/D424A/L744C/Y766A) | nucleotide incorporation, substrate, single-turnover rapid quench | – | together with: radiolabelled primer-template DNA | – | Kd | 150000 ± 40000 nM
